Measured values pooled from the literature.
Each numbered part is a random draw from the data of one study; scales do not carry over between parts. Several values in a cell are separate wells, animals, samples, runs or records.
Chain of UniProt O94804 (whole entry, looked up): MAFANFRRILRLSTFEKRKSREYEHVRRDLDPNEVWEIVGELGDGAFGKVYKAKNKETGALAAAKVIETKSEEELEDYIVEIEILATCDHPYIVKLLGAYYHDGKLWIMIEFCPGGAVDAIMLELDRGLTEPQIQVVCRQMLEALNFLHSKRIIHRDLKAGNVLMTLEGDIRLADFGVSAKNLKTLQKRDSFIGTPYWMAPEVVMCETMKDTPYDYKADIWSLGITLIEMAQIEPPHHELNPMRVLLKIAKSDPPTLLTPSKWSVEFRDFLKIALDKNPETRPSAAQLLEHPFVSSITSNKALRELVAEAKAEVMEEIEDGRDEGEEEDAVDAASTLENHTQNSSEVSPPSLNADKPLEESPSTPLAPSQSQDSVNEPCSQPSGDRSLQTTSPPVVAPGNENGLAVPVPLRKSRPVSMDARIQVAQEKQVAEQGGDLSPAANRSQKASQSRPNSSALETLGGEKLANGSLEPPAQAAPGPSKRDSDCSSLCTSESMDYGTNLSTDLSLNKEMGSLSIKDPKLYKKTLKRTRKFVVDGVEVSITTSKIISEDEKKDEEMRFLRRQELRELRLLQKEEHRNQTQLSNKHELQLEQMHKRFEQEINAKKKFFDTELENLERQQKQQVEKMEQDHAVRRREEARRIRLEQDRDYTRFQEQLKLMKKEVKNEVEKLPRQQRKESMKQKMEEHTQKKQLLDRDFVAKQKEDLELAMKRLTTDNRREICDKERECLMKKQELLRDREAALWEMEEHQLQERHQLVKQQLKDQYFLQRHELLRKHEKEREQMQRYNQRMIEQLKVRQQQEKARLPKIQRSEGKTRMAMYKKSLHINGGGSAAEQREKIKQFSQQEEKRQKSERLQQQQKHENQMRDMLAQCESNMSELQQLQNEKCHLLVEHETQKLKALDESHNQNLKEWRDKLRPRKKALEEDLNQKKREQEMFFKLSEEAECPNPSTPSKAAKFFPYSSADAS
Chain of UniProt Q16816 (whole entry, looked up): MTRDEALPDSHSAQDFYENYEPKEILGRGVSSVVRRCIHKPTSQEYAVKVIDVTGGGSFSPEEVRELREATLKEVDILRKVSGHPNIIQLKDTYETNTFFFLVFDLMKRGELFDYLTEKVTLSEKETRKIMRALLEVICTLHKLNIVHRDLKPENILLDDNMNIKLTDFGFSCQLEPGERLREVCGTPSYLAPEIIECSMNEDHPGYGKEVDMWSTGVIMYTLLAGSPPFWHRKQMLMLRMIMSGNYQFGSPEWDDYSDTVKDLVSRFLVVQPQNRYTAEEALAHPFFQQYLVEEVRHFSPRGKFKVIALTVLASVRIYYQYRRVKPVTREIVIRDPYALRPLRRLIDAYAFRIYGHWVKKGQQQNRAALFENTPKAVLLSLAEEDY
Chain of UniProt P29323 (whole entry, looked up): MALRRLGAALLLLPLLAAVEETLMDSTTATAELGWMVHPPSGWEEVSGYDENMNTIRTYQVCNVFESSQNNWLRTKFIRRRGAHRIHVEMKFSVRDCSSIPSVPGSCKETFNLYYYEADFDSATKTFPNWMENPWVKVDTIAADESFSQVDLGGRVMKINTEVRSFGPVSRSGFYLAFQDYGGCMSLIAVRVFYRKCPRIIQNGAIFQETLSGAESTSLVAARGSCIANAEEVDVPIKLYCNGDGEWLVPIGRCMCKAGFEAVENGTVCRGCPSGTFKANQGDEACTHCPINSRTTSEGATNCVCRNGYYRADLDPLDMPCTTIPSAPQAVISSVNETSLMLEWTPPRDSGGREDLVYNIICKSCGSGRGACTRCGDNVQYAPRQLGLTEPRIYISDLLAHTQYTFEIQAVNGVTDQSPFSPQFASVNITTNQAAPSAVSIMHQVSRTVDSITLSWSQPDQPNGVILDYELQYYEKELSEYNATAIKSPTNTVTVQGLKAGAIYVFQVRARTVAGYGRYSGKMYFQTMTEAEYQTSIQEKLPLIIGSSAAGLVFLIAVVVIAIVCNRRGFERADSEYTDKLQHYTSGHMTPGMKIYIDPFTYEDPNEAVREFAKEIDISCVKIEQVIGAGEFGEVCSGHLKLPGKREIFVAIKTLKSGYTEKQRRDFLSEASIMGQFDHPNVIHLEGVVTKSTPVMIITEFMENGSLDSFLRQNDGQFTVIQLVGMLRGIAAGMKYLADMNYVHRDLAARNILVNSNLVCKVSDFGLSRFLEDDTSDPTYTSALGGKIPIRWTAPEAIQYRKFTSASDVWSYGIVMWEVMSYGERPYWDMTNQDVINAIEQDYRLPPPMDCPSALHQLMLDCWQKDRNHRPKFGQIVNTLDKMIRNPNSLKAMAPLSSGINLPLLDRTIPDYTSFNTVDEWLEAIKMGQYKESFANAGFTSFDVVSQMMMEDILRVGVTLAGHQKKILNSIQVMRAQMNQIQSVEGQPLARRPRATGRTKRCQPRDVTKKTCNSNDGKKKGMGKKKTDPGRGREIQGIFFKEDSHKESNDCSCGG
Chain of UniProt Q08881 (whole entry, looked up): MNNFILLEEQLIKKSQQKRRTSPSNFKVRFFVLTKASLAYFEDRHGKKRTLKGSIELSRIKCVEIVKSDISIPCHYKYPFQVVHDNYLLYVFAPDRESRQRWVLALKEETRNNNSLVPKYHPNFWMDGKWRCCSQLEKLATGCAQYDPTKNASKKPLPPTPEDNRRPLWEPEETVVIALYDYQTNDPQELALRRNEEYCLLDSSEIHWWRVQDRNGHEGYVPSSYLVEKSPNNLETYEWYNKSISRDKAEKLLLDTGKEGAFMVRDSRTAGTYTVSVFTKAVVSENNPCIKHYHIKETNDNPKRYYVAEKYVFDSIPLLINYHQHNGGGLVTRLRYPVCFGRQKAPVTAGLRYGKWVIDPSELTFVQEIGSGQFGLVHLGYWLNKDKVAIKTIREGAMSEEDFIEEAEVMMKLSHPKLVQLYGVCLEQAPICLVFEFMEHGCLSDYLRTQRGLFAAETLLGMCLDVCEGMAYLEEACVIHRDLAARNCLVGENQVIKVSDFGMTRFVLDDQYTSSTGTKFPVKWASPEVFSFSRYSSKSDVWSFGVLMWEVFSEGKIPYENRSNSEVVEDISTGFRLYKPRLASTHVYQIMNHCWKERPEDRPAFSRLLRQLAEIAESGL
Chain of UniProt Q6ZWH5 (whole entry, looked up): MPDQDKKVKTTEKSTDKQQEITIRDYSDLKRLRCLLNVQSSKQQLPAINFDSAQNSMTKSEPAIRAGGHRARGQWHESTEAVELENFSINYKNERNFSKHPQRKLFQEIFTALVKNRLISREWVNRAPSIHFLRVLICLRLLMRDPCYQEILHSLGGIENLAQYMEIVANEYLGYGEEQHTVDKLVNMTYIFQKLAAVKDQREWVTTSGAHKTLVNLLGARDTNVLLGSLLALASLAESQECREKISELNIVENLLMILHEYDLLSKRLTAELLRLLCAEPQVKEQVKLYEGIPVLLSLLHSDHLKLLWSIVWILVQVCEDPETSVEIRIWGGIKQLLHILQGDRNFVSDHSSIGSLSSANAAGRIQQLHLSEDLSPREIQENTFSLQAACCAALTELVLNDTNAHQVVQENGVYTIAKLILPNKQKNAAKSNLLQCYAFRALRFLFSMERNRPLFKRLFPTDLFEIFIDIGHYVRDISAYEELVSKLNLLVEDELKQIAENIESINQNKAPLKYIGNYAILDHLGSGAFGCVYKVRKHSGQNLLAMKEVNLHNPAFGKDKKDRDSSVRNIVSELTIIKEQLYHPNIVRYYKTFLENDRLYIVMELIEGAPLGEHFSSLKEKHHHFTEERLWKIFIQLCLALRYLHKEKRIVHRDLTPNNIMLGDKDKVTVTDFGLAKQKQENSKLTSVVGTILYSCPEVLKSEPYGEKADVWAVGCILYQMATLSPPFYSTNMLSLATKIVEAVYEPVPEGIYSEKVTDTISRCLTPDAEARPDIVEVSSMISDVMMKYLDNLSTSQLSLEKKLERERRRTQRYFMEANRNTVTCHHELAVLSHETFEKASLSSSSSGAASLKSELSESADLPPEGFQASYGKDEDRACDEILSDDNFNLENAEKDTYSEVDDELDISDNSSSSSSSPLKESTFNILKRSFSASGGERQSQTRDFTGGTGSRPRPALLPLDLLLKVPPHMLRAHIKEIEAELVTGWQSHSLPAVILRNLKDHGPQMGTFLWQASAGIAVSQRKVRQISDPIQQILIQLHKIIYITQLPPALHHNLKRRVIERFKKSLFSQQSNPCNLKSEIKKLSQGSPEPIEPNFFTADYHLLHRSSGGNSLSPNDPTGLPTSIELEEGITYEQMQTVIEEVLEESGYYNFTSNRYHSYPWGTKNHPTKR
Chain of UniProt P32298 (whole entry, looked up): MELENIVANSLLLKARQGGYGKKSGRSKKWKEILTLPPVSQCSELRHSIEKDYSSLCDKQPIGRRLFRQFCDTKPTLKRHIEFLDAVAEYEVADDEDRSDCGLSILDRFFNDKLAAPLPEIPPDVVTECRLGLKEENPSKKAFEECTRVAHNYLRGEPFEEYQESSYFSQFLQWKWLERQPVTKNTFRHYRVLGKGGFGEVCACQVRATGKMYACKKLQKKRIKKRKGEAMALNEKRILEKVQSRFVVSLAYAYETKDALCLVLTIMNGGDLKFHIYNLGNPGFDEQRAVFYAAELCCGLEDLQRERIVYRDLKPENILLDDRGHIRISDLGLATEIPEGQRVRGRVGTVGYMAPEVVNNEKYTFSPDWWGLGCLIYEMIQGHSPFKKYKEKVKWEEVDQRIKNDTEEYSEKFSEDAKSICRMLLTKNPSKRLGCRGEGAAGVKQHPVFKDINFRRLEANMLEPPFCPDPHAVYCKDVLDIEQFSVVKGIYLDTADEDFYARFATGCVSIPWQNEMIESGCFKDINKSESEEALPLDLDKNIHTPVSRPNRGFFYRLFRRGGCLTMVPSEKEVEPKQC

Set 1 — read-out: cell-free assay; technique: competition with immobilised ligand; tested at: 1 µM
SMILES: CO[C@@H](C)c1c(Nc2ccc([C@@H](N(C)C(=O)C3CCS(=O)(=O)CC3)C(F)(F)F)cc2)cnc2cc(Cl)nn12
| target | remaining binding [%] |
| --- | --- |
| EIF2AK1 (Homo sapiens, UniProt Q9BQI3) | 100 |
| ITK (Homo sapiens, UniProt Q08881) | 94 |
| NEK10 (Homo sapiens, UniProt Q6ZWH5) | 100 |
| MAP3K12 (Homo sapiens, UniProt Q12852) | 100 |
| MAP3K19 (Homo sapiens, UniProt Q56UN5) | 77 |
| RIOK2 (Homo sapiens, UniProt Q9BVS4) | 89 |
| Non-receptor tyrosine-protein kinase TYK2, JH2 (TYK2, Homo sapiens, UniProt P29597) | 100 |
| FLT3 (Homo sapiens, UniProt P36888, D835V/ITD) | 59 |
| STK38L (Homo sapiens, UniProt Q9Y2H1) | 75 |
| STK10 (Homo sapiens, UniProt O94804) | 98 |
| PTK2 (Homo sapiens, UniProt Q05397) | 90 |
| EPHB2 (Homo sapiens, UniProt P29323) | 92 |
| PHKG1 (Homo sapiens, UniProt Q16816) | 96 |
| PRKG2 (Homo sapiens, UniProt Q13237) | 100 |
| GRK4 (Homo sapiens, UniProt P32298) | 100 |
| Tyrosine-protein kinase ABL1, non-phosphorylated (ABL1, Homo sapiens, UniProt P00519, H396P) | 96 |

Set 2 — species: human; sample: microsomes or S9; tested at: 2 µM; time: 0.5 h
| Compound | remaining compound |
| --- | --- |
| N#Cc1cnc(N[C@H]2CC[C@H](Nc3cnc(C#N)cn3)CC2)cn1 | > 99.9% |
| Cc1cc(C)cc(N(C)S(=O)(=O)c2ccsc2-c2nc(-c3cccnc3)no2)c1 | 36.1% |
| CC1(C)CC(Nc2ccc3nncn3n2)CC(C)(C)N1 | 81.5% |
| Cc1cc(C)c(C(=O)Nc2ccc3c(c2)n(C)c(=O)n3C)c(=O)[nH]1 | 85.4% |
| CCN1CCN(CCCNC(=O)c2oc3ccc4c(c3c2C)C(O)CC(C)(C)O4)CC1 (centres unmarked) | > 99.9% |
| Cn1nc(Br)nc1N1CCC(O)CC1 | 83.4% |
| Cc1ccsc1-c1cn(C(C(=O)N(C)C)c2ccccc2)nn1 (centres unmarked) | 67.8% |
| Cc1nc2ncc(-c3cccc(N(C)C)c3)cc2[nH]1 | 87.4% |
| CCOC(=O)CCS(=O)(=O)c1n[nH]c(NC(C)=O)n1 | 89.5% |
| COC(=O)c1ccccc1C1CCN(C(=O)OC(C)(C)C)CC1 | 6.38% |
| O=C(c1ccoc1)N1CC(c2nnc(-c3ccncc3)o2)C2(CCOCC2)C1 (centres unmarked) | > 100% |
| C=CCC(C)(NCc1ccccc1)c1ccccc1 (centres unmarked) | 44.4% |
| Cc1nn(CC(=O)N2c3c(c(C)nn3C)N(C(=O)OC(C)(C)C)CC2C)c(C)c1Cl (centres unmarked) | 4.86% |
| CCOc1cc(/C=N/n2cnnc2)ccc1OCCOCCOc1ccc(C)cc1 | 43.1% |
| Cc1cc(C)c(C2=C(NC(=O)C(C)C)C3(CCCC3)OC2=O)c(C)c1 | 0.406% |
| CCN1CCCCC1CNc1nccc(-c2ccc(C)nc2C)n1 (centres unmarked) | 102% |
| Cn1cc(-c2cnc3c(N)nn(Cc4cccc(C(F)(F)F)c4)c3c2)cn1 | 63.8% |
| Fc1ccc(-c2ccc3ccnc(N4CCOCC4)c3c2)cc1Cl | 14.6% |

Set 3 — read-out: enzyme activity; mode: inhibitor; tested at: 0.5 µM; baseline: control
Target: Serine/threonine-protein kinase Sgk2 (SGK2, Homo sapiens, UniProt Q9HBY8)
Target sequence (Q9HBY8 1-367): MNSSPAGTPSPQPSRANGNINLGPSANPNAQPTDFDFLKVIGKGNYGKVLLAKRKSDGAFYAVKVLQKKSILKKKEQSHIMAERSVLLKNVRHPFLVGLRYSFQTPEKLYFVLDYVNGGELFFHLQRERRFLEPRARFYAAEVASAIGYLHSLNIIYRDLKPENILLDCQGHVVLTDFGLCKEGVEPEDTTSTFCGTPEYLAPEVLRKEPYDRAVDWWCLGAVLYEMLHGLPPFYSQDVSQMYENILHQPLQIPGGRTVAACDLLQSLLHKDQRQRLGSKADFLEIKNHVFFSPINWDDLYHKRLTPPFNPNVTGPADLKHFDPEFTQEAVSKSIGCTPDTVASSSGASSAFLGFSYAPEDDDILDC
| SMILES | remaining activity [%] |
| --- | --- |
| CCN(CC)CCNC(=O)c1c(C)[nH]c(/C=C2\C(=O)Nc3ccc(F)cc32)c1C | 93.2 |
| c1ccc(-c2cnc(Nc3ccc(OCCN4CCCC4)cc3)s2)cc1 | 101 |
| O=C(NC(NC(=S)Nc1ccc(F)c([N+](=O)[O-])c1)C(Cl)(Cl)Cl)C(c1ccccc1)c1ccccc1 (centres unmarked) | 119 |
| O=C1C(Cl)=C(N2C(=O)CCC2=O)C(=O)c2ccccc21 | 99.5 |
| c1ccc(-c2[nH]ncc2-c2ccnc3ccccc23)nc1 | 101 |
| Cc1nc2cc3nc(-c4cccs4)cnc3cc2n1C | 115 |
| CCN(CC)CCNC(=O)c1c(C)[nH]c(/C=C2\C(=O)Nc3ccc(Cl)cc32)c1C | 62.8 |
| N#C/C(=C\c1ccc(O)c(O)c1)C(=O)NCc1ccccc1 | 101 |
| O=C(Nc1cccc(Nc2nccc(Nc3cccc(C(F)(F)F)c3)n2)c1)C1CC1 | 118 |
| N#Cc1c(NC(=O)c2cccc3ccccc23)sc2c1CCCC2 | 101 |
| O=c1cc(-c2cccc3c2Sc2ccccc2S3)oc(N2CCOCC2)c1 | 115 |
| Cc1cc2ncc(-c3ccccc3)nc2cc1C | 101 |
| CCOc1nc(NC(=O)Cc2cc(OC)ccc2OC)cc(N)c1C#N | 102 |
| Ic1cccc(CSc2nnc(-c3ccncc3)o2)c1 | 102 |
| CN([C@@H](Cc1ccc(OS(=O)(=O)c2cccc3cnccc23)cc1)C(=O)N1CCN(c2ccccc2)CC1)S(=O)(=O)c1cccc2cnccc12 | 100 |
| COc1cc2c(cc1OC)-c1[nH]nc(Nc3cccc(F)c3)c1C2 | 98.6 |
| C[C@@H]1CCN(C(=O)CC#N)C[C@@H]1N(C)c1ncnc2[nH]ccc12 | 104 |
| O=C1c2ccccc2-c2n[nH]c3cccc1c23 | 85.1 |
| Cn1nc2c3c(cccc31)C(=O)c1ccccc1-2 | 98.9 |
| COc1cc2ncnc(Nc3ccc(O)c(Br)c3)c2cc1OC | 95.1 |
| COc1cc2ncnc(Nc3cccc(Cl)c3)c2cc1OC | 97.8 |
| Cc1cn(-c2cc(NC(=O)c3ccc(C)c(Nc4nccc(-c5cccnc5)n4)c3)cc(C(F)(F)F)c2)cn1 | 103 |
| CCN(CC)C(=O)c1ccc(Nc2nc(OCC3CCCCC3)c3[nH]cnc3n2)cc1 | 94.4 |
| Nc1cccc(-c2cc3c(Oc4cccc(O)c4)ncnc3[nH]2)c1 | 96.2 |

Set 4 — cell line: A-375; tested at: 100 µM; time: 36 h
| SMILES | viability |
| --- | --- |
| CC(=O)OCC[N+](C)(C)C | 121% |
| Cc1cccc(Nc2ccncc2S(=O)(=O)NC(=O)NC(C)C)c1 | 93.6% |
| COc1cc2c(Nc3ccc(Br)cc3F)ncnc2cc1OCC1CCN(C)CC1 | 0.779% |
| N[C@@H](Cc1cc(I)c(Oc2ccc(O)c(I)c2)c(I)c1)C(=O)O | 90.8% |
| COc1cc2c(cc1Cc1cccc(Cl)c1F)c(=O)c(C(=O)O)cn2[C@H](CO)C(C)C | 73.5% |
| CO[C@H]1/C=C/O[C@@]2(C)Oc3c(C)c(O)c4c(c3C2=O)C2=NC3(CCN(CC(C)C)CC3)NC2=C(NC(=O)/C(C)=C\C=C\[C@H](C)[C@H](O)[C@@H](C)[C@@H](O)[C@@H](C)[C@H](OC(C)=O)[C@@H]1C)C4=O | 16.2% |
| CCCCC(=O)O[C@]1(C(=O)CO)CC[C@H]2[C@@H]3CCC4=CC(=O)CC[C@]4(C)[C@H]3[C@@H](O)C[C@@]21C | 56.2% |
| CC1(C)S[C@@H]2[C@H](NC(=O)[C@H](N)c3ccc(O)cc3)C(=O)N2[C@H]1C(=O)O | 79.3% and 112% |
| Cc1ccc(-c2ncc(Cl)cc2-c2ccc(S(C)(=O)=O)cc2)cn1 | 105% |
| Cc1nc(Nc2ccc(F)cc2)nc(N2CCc3ccccc3C2C)c1C (centres unmarked) | 0.838% |
| C[C@@H]1C/C=C/C=C/C=C/C=C/[C@H](O[C@@H]2O[C@H](C)[C@@H](O)[C@H](N)[C@@H]2O)C[C@@H]2O[C@](O)(C[C@@H](O)C[C@H]3O[C@@H]3/C=C/C(=O)O1)C[C@H](O)[C@H]2C(=O)O | 118% |
| CC(C)Cn1cnc2c(N)nc3ccccc3c21 | 89.8% |
| CC(=O)Nc1cccc(-n2c(=O)n(C3CC3)c(=O)c3c(Nc4ccc(I)cc4F)n(C)c(=O)c(C)c32)c1 | 57.2% |

A few entries again (set 3):
| SMILES | remaining activity [%] |
| --- | --- |
| O=C(NC(NC(=S)Nc1ccc(F)c([N+](=O)[O-])c1)C(Cl)(Cl)Cl)C(c1ccccc1)c1ccccc1 (centres unmarked) | 119 |
| CN([C@@H](Cc1ccc(OS(=O)(=O)c2cccc3cnccc23)cc1)C(=O)N1CCN(c2ccccc2)CC1)S(=O)(=O)c1cccc2cnccc12 | 100 |
| CCN(CC)C(=O)c1ccc(Nc2nc(OCC3CCCCC3)c3[nH]cnc3n2)cc1 | 94.4 |
| CCN(CC)CCNC(=O)c1c(C)[nH]c(/C=C2\C(=O)Nc3ccc(F)cc32)c1C | 93.2 |
| N#Cc1c(NC(=O)c2cccc3ccccc23)sc2c1CCCC2 | 101 |
| Cc1cn(-c2cc(NC(=O)c3ccc(C)c(Nc4nccc(-c5cccnc5)n4)c3)cc(C(F)(F)F)c2)cn1 | 103 |
| CCOc1nc(NC(=O)Cc2cc(OC)ccc2OC)cc(N)c1C#N | 102 |
| N#C/C(=C\c1ccc(O)c(O)c1)C(=O)NCc1ccccc1 | 101 |
| Cc1nc2cc3nc(-c4cccs4)cnc3cc2n1C | 115 |
| COc1cc2c(cc1OC)-c1[nH]nc(Nc3cccc(F)c3)c1C2 | 98.6 |
| O=C1C(Cl)=C(N2C(=O)CCC2=O)C(=O)c2ccccc21 | 99.5 |
